Assay results from different studies.
Every numbered part comes from another study and shows a few of its results, in no order. Positions count from the first letter of the parent shown.

Block 1 — method: DHFR PCA, deep sequencing; matrix: yeast; with: (+)-ABA 17 µM; relative to: wild-type fitted maximum; reading: higher = stronger binding
Target: ABI1, truncated, D143A, DHFR fusion (Arabidopsis thaliana)
Setting: methotrexate growth selection, single substitutions
Starting sequence: PYL1, truncated, DHFR fusion (Arabidopsis thaliana); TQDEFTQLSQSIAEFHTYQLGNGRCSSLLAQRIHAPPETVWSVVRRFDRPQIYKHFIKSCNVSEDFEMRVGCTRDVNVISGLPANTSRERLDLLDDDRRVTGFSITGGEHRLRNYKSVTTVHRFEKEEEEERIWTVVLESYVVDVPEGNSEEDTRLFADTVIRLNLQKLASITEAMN; partner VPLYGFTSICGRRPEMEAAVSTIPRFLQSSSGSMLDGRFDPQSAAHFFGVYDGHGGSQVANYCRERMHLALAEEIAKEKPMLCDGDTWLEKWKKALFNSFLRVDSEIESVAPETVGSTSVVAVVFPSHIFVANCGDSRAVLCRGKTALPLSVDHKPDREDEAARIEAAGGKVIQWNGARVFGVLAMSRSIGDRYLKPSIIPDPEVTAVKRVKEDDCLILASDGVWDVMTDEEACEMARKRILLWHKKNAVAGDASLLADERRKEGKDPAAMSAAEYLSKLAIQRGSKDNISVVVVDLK
Variant	relative binding score [%]
R155V	76.9
R99M	103
M68V	77.6
T39D	76
K58E	67.3
L166V	-8.02
F124D	96.1
C60A	52.9
E129W	71.6
G108E	-10.3
Q19N	82.8
A170E	29.2

Block 2 — method: protein binding microarray; molecule type: double-stranded DNA, one strand shown; matrix: in vitro; tested at: not given; relative to: not given; reading: higher = stronger binding
Target: Histone acetyltransferase KAT6A, both winged helices, GST fusion (KAT6A, Homo sapiens, UniProt Q92794, residues 1-181)
Setting: 8-mer, flanks averaged, mean of 2 arrays, mostly near background
Construct (chain): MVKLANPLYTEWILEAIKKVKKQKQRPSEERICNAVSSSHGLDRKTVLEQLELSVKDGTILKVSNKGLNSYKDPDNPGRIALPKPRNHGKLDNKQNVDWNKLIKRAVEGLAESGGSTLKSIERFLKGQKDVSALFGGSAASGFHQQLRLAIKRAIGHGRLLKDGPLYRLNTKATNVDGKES
Oligonucleotide	E-score
GCAAACCC	0.0984
ATCCGTAC	0.228
ACTCACAT	-0.131
ACGACGAC	-0.0798
CAGCTCGA	-0.0814
CACTTCAG	-0.199
GCTACTGA	-0.0731
CCGCCACA	0.118
CACTTCCC	-0.0815
TCGGACGA	0.144

Block 3 — target: CCND2, cyclin fold, Cln2 fusion (human); method: yeast growth competition, sequencing; matrix: yeast; setting: weak parent motif; relative to: not given; reading: higher = stronger binding
Starting sequence: CDKN1B docking peptide (human); PSACRNLFGPVDH; partner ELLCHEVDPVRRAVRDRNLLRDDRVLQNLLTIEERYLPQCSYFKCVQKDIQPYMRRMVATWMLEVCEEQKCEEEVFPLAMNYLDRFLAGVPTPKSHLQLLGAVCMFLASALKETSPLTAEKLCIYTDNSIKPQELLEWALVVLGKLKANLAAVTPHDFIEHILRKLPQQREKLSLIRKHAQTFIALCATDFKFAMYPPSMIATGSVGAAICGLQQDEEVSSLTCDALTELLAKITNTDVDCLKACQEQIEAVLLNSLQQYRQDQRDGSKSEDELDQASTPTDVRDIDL
Variant	normalised enrichment score
N6G	0.0847
A3N	0.000751
N6S	0.325
H13P	0.082
G9Q	0.513
P10I	0.0125
P10W	0.243
R5K	-0.0724
V11N	0.415
P10A	-0.231
P10H	-0.205
A3L	0.0902
P1C	0.0803
S2T	0.244
H13D	-0.00303

Further values, each from its own experiment
Substance	target	test	system	setting	scale	endpoint	result
PhoQ, residues 284 288 289 292 302 303 SNSSNI	PhoP, residues 12 14 15 18 19 LHSVQ (Escherichia coli, UniProt P23836)	Sort-seq, refers to: YFP reporter	E. coli	PhoQ-PhoP variant library, with: 10 µM Mg2+	relative to: high Mg2+ state, higher = stronger signaling	fold induction	1.6
